{"data": "Measurements of several laboratories", "note": "Lines come from different studies, so protocols differ. ± gives the spread as reported."}
{"SMILES": "CCC[P+](c1ccccc1)(c1ccccc1)c1ccccc1", "cell line": "T47D", "assay": "cell growth or viability", "conditions": "72 h", "measurement": "GI50", "value": "3.45 µM"}
{"SMILES": "Cc1cccc(O)c1C(=O)OCC1(O)C(Nc2ccc3c(c2)Cc2ccccc2-3)C(N)C(NC(=O)N(C)C)(C(C)O)C1(C)O (stereo not shown)", "cell line": "NCI-H322M", "assay": "cell growth or viability, SRB", "measurement": "GI50", "value": "1.07 µM"}
{"SMILES": "CCCCCCCCC[P+](c1ccccc1)(c1ccccc1)c1ccccc1", "cell line": "A-375", "assay": "cell growth or viability, MTT", "conditions": "72 h", "measurement": "GI50", "value": "0.254 µM"}
{"SMILES": "CCNc1cc2[o+]c3cc(NCC)c(C)cc3c(-c3ccccc3C(=O)OCCOCC[18F])c2cc1C", "cell line": "rat cardiomyocytes", "conditions": "1 min", "scale": "baseline: activity", "measurement": "uptake", "value": "4.6 ± 0.7%"}
{"SMILES": "CC(C)c1cnn2c(NCc3ccccc3)cc(N[C@@H](CO)[C@H](O)CO)nc12", "cell line": "NIH-3T3 pHamdr1 (ABCB1-overexpressing)", "assay": "cell growth, sulforhodamine B", "scale": "baseline: pHamdr1 over parental 3T3", "measurement": "resistance factor", "value": "10 fold"}
{"SMILES": "CC/C=C\\C/C=C\\C/C=C\\C/C=C\\C/C=C\\C/C=C\\CCC(=O)Nc1ccn(C2OC(CO)C(O)C2(F)F)c(=O)n1 (stereo not shown)", "cell line": "KM12", "assay": "NCI60 screen", "measurement": "CC50", "value": "51.9 µM"}
{"SMILES": "CCCc1cc(OC)c2c(c1OC)OCO2", "cell line": "T47D", "assay": "cell growth or viability", "conditions": "72 h", "measurement": "GI50", "value": "> 250 µM"}
{"SMILES": "CC(C)CC(O)(CC(C)C)c1cn(C(=O)N2CCCC2)nn1", "cell line": "mouse T-cells", "assay": "N-terminal labeled proteins, N-terminal enrichment proteomics, refers to: PAIP2B", "conditions": "1 nM, 6 h", "scale": "baseline: DMSO", "measurement": "SILAC ratio", "value": "2.61 ± 0.63"}
{"SMILES": "CC[C@H](C)[C@@H]1NC(=O)[C@H](Cc2c[nH]c3ccccc23)NC(=O)[C@H](CCCCCC(=O)NO)NC(=O)[C@H]2CCCCN2C1=O", "cell line": "iPSC-derived neural progenitor cells", "assay": "western blot", "conditions": "1 µM, 18 h", "scale": "baseline: vehicle", "measurement": "H3K9 acetylation", "value": "~6.4 fold increase"}
{"SMILES": "C[P+](c1ccccc1)(c1ccccc1)c1ccccc1", "cell line": "DU-145", "assay": "cell growth or viability, MTT", "conditions": "72 h", "measurement": "GI50", "value": "1.56 µM"}
{"SMILES": "CCN(CC)CCOc1ccc(-c2nnn(Cc3ccc(OC)cc3)c2N)cc1", "cell line": "primary Nf2-deficient mouse tumour cells 184", "assay": "western blot, refers to: GFAP", "conditions": "concentration not given, 3 days", "measurement": "protein level", "value": "increased"}
{"SMILES": "CN1C(=O)C2(Cc3ccc(CC45SSC(CO)(C(=O)N4C)N(C)C5=O)cc3)SSC1(CO)C(=O)N2C (racemic)", "cell line": "MCF7", "assay": "microarray", "conditions": "600 nM, ≥2-fold change, with: deferoxamine", "measurement": "transcriptome share affected", "value": "1.4%"}
{"SMILES": "CN(C)c1ccc(/C=C2\\Oc3cc(O)ccc3C2=O)cc1", "cell line": "PC-9 ERO1α knockout", "assay": "cell viability, MTT", "conditions": "72 h", "scale": "baseline: parental PC-9 cells", "measurement": "fold resistance", "value": "2 to 3 fold"}
{"SMILES": "CCCCCCN(CCCCCC)[C@H]1C=C[C@]2(O[C@H]([C@@H](CC)C(=O)[C@@H](C)[C@@H](O)[C@H](C)[C@@H]3O[C@@H]([C@@H](CC)C(=O)O)CC[C@@H]3C)[C@@H](C)C[C@H]2C)O[C@@]12CC[C@@](C)([C@H]1CC[C@](O)(CC)[C@H](C)O1)O2", "cell line": "HMLER CD24low/CD44high", "assay": "cell viability, CellTiter-Blue", "conditions": "72 h", "scale": "baseline: IC50 HMLER CD24high/CD44low over CD24low/CD44high", "measurement": "selectivity ratio", "value": 13.3}
{"SMILES": "N=C(N)Nc1ccc(-c2nc3ccc(-c4ccc5nc(-c6ccc(NC(=N)N)cc6)[nH]c5c4)cc3[nH]2)cc1", "cell line": "sample A patient fibroblasts", "assay": "MBNL1 exon 5 splicing rescue", "measurement": "lowest effective concentration", "value": "10 µM"}
{"SMILES": "CN(C)C=Nc1c(C#N)cnn1-c1ccc(F)c(Cl)c1", "cell line": "Drosophila S2 cells", "assay": "live imaging", "conditions": "40 µM, added after contractile ring assembly", "measurement": "ring ingression", "value": "no effect"}
{"SMILES": "COc1cc2c3cc1Oc1cc(ccc1O)CC1c4c(cc(OC)c(O)c4Oc4ccc(cc4)CC3N(C)CC2)CCN1C (stereo not shown)", "cell line": "Huh-7", "scale": "baseline: Huh-7 CC50 over INDO IC50", "measurement": "selectivity index", "value": 123}
{"SMILES": "CC[C@H](C)[C@H](NC(=O)[C@H](Cc1ccccc1)NC(=O)[C@H](CC(=O)O)NC(=O)[C@H](CCCCN)NC(=O)[C@H](C)NC(=O)[C@H](CCCCN)NC(=O)[C@H](CC(N)=O)NC(=O)[C@H](CC(C)C)NC(=O)[C@H](Cc1c[nH]c2ccccc12)NC(=O)[C@H](CCC(=O)O)NC(=O)[C@H](CCCCN)NC(=O)[C@H](Cc1c[nH]c2ccccc12)NC(=O)CNC(=O)[C@H](C)N)C(=O)N[C@@H](CCCCN)C(=O)N[C@@H](CCC(=O)O)C(=O)N[C@@H](CCCCN)C(=O)NCC(=O)N[C@@H](CC(C)C)C(=O)NCC(=O)N[C@@H](CCSC)C(=O)N[C@@H](CC(C)C)C(=O)N[C@@H](CO)C(=O)N[C@@H](C)C(=O)N[C@@H](C)C(=O)N[C@@H](C)C(=O)N[C@@H](CC(N)=O)C(=O)N[C@@H](C)C(=O)N[C@@H](C)C(=O)N[C@@H](CC(C)C)C(=O)N[C@@H](CC(N)=O)C(=O)O", "cell line": "HEK293 cells", "assay": "intracellular calcium, FLIPR", "conditions": "0.1% BSA", "measurement": "EC50", "value": "> 100 µM"}
{"SMILES": "Cc1cc(Nc2nc(C[C@@]3(C(=O)O)CCN(Cc4cccc(Cl)c4F)[C@H](C)C3)cc(C)c2F)[nH]n1", "cell line": "NCI-H446", "assay": "cell cycle, flow cytometry", "conditions": "concentration not given, 24 h", "measurement": "G2/M phase cells", "value": "increased"}
{"SMILES": "CNC(=O)c1cc(Oc2ccc(NC(=O)c3ccc(-c4cccc(COC(=O)CCC(=O)OC5OC6OC7(C)CCC8C(C)CCC(C5C)C68OO7)c4)cn3)cc2)ccn1 (stereo not shown)", "cell line": "Huh-7", "assay": "PI staining, flow cytometry", "conditions": "concentration not given, 24 h", "measurement": "G2/M phase cells", "value": "22%"}
{"SMILES": "CCCC[C@H](NC(=O)[C@H](Cc1ccccc1)NC(=O)[C@H](Cc1c[nH]cn1)NC(=O)CCNC(=O)[C@@H](NC(=O)[C@H](C)NC(=O)[C@H](Cc1c[nH]c2ccccc12)NC(=O)[C@H](CCC(N)=O)NC(=O)[C@H](N)Cc1ccc(O)cc1)C(C)C)C(N)=O", "cell line": "Balb/3T3-BRS-3", "assay": "MTT", "conditions": "10 nM, 16 h", "measurement": "cell growth", "value": "138 ± 11%"}
{"SMILES": "C=C1C(=O)O[C@H]2[C@H]1CCC(COC(=O)c1cn[nH]c1-c1ccccc1)=C1CC[C@@](C)(O)[C@@H]12", "cell line": "M9-ENL1 leukaemia cells", "assay": "annexin V/7-AAD flow cytometry", "conditions": "24 h, 5% human plasma", "measurement": "CC50", "value": "8.6 µM"}
{"SMILES": "CC(=O)N[C@@H](CCCCN)C(=O)N[C@H](C(=O)NCC(=O)N[C@@H](CC(=O)O)C(=O)N[C@@H](CCC(=O)O)C(=O)N[C@@H](CCCCN)C(=O)N[C@@H](CCCCN)C(=O)NCC(=O)NCC(=O)N[C@@H](Cc1ccc(O)cc1)C(=O)NCC(=O)N[C@@H](CCCNC(=N)N)C(=O)N[C@@H](CCCCN)C(=O)N[C@@H](CCCCN)C(=O)N[C@@H](CCCNC(=N)N)C(=O)N[C@@H](CCCNC(=N)N)C(=O)N[C@@H](CCC(N)=O)C(=O)N[C@@H](CCCNC(=N)N)C(=O)N[C@@H](CCCNC(=N)N)C(=O)N[C@@H](CCCNC(=N)N)C(N)=O)[C@@H](C)O", "cell line": "Huh-7", "assay": "apoptosis, flow cytometry", "conditions": "40 µM, 16 h", "measurement": "caspase-3 positive cells", "value": "2.23%"}
{"SMILES": "CC(C)C[C@H](NC(=O)[C@H](C)NC(=O)[C@H](CCCCN)NC(=O)CCNC(=S)Nc1ccc2c(c1)C(=O)OC21c2ccc(O)cc2Oc2cc(O)ccc21)C(=O)N[C@@H](CCC(=O)O)C(=O)N[C@H](C(=O)N[C@@H](CC(C)C)C(=O)N[C@@H](CCCNC(=N)N)C(=O)N[C@@H](CCCNC(=N)N)C(=O)N[C@H](C(=O)NCC(=O)N[C@@H](CC(=O)O)C(=O)NCC(=O)N[C@H](C(=O)N[C@@]1(C)CCC/C=C\\CCC[C@@](C)(C(=O)N[C@H](C(=O)N[C@@H](C)C(=O)N[C@@H](Cc2ccccc2)C(N)=O)[C@@H](C)O)NC(=O)[C@H](Cc2c[nH]cn2)NC(=O)[C@H](CC(N)=O)NC(=O)[C@H](CCCNC(=N)N)NC1=O)C(C)C)C(C)C)[C@@H](C)O", "cell line": "OPM-2", "assay": "MTT", "conditions": "concentration not given, 24 h, with: low-dose FasL", "measurement": "viability", "value": "no effect"}
{"SMILES": "CCCc1cc2c(c(OC)c1OC)OCO2", "cell line": "T47D", "assay": "cell growth or viability, MTT", "conditions": "72 h", "measurement": "GI50", "value": "116 µM"}
{"note": "For quick reference, copied from above:"}
{"SMILES": "CCNc1cc2[o+]c3cc(NCC)c(C)cc3c(-c3ccccc3C(=O)OCCOCC[18F])c2cc1C", "cell line": "rat cardiomyocytes", "conditions": "1 min", "scale": "baseline: activity", "measurement": "uptake", "value": "4.6 ± 0.7%"}
{"SMILES": "CC(C)c1cnn2c(NCc3ccccc3)cc(N[C@@H](CO)[C@H](O)CO)nc12", "cell line": "NIH-3T3 pHamdr1 (ABCB1-overexpressing)", "assay": "cell growth, sulforhodamine B", "scale": "baseline: pHamdr1 over parental 3T3", "measurement": "resistance factor", "value": "10 fold"}
{"SMILES": "CC/C=C\\C/C=C\\C/C=C\\C/C=C\\C/C=C\\C/C=C\\CCC(=O)Nc1ccn(C2OC(CO)C(O)C2(F)F)c(=O)n1 (stereo not shown)", "cell line": "KM12", "assay": "NCI60 screen", "measurement": "CC50", "value": "51.9 µM"}
